Measurements gathered from unrelated publications.
Each line is one published result; not all experiments were run side by side. Values joined by “and” are separate records of one study, mostly repeats; a detail may differ.
Organism: Staphylococcus epidermidis

| Compound | test | test system | conditions | MIC |
| --- | --- | --- | --- | --- |
| CCN1CCNC1=[S+][Ag-3]([O][N+](=O)[O-])([P+](c1ccccc1)(c1ccccc1)c1ccccc1)[P+](c1ccccc1)(c1ccccc1)c1ccccc1 | agar dilution | MTCC 435, Mueller Hinton agar | 24 h, 37 °C | 5 to 10 µg/mL and 5 µg/mL |
| CC[C@H](C)[C@H](NC(=O)[C@H](NC(=O)[C@@H](CCC(N)=O)NC(=O)[C@@H](N)COC(=O)[C@@H](NC(=O)[C@@H](Cc1ccccc1)NC)[C@@H](C)CC)[C@@H](C)CC)C(=O)N[C@@H](CO)C(=O)N[C@H]1C(=O)N[C@@H](C)C(=O)N[C@@H](C2CCCCC2)C(=O)N[C@@H]([C@@H](C)CC)C(=O)O[C@H]1C | broth microdilution | ATCC 14990, Mueller-Hinton broth | 16 h, 37 °C | 0.25 µg/mL |
| CC[C@H](C)[C@H](NC(=O)[C@@H](N)C(C)C)C(=O)N[C@@H](Cc1c[nH]cn1)C(=O)N[C@@H](CCCNC(=N)N)C(=O)N[C@@H](C)C(=O)NCC(=O)N[C@@H](CC(C)C)C(=O)N[C@@H](CCC(N)=O)C(=O)N[C@@H](Cc1ccccc1)C(=O)N1CCC[C@H]1C(=O)N[C@H](C(=O)NCC(=O)N[C@@H](CCCNC(=N)N)C(=O)N[C@H](C(=O)N[C@@H](Cc1c[nH]cn1)C(=O)N[C@@H](CCCNC(=N)N)C(=O)N[C@@H](CC(C)C)C(=O)N[C@@H](CC(C)C)C(=O)N[C@@H](CCCNC(=N)N)C(=O)N[C@@H](CCCCN)C(N)=O)C(C)C)C(C)C | – | ATCC 12228 | 18 to 20 h | 8 µM |
| CC[C@H](C)[C@H](NC(=O)[C@@H](Cc1ccccc1)NC)C(=O)N[C@@H](CO)C(=O)N[C@H](CCC(N)=O)C(=O)N[C@@H](C(=O)N[C@H](C(=O)OC[C@H](N)C(=O)N[C@H]1C(=O)N[C@@H](C)C(=O)N[C@@H](C2CCCCC2)C(=O)N[C@@H]([C@@H](C)CC)C(=O)O[C@H]1C)[C@@H](C)CC)[C@@H](C)CC | broth microdilution | ATCC 14990, Mueller-Hinton broth | 16 h, 37 °C | 0.25 µg/mL |
| CC[C@H](C)[C@H](NC(=O)[C@H](CCCNC(=N)N)NC(=O)[C@H](CCCCN)NC(=O)[C@H](CC(C)C)NC(=O)[C@H](CC(C)C)NC(=O)CNC(=O)[C@H](Cc1c[nH]cn1)NC(=O)[C@@H](NC(=O)[C@@H](N)C(C)C)[C@@H](C)CC)C(=O)N[C@@H](CCCCN)C(=O)N[C@H](C(=O)N[C@@H](CC(C)C)C(=O)N[C@@H](CC(C)C)C(N)=O)[C@@H](C)O | – | ATCC 12228 | 18 to 20 h | 2 µM |
| CC[C@H](C)[C@H](NC(=O)CNC(=O)[C@H](CCCCN)NC(=O)[C@H](C)NC(=O)[C@H](CCC(=O)O)NC(=O)[C@H](Cc1ccccc1)NC(=O)[C@H](CO)NC(=O)[C@H](CC(C)C)NC(=O)[C@@H](NC(=O)[C@H](CC(=O)O)NC(=O)[C@H](C)NC(=O)[C@@H](NC(=O)[C@@H](N)C(C)C)[C@@H](C)O)C(C)C)C(=O)N[C@@H](C)C(=O)N[C@H](C(=O)N[C@@H](CC(N)=O)C(=O)N[C@@H](Cc1c[nH]cn1)C(=O)N[C@@H](CO)C(=O)N[C@@H](C)C(=O)N[C@H]1CSSC[C@@H]2NC(=O)[C@H](C(C)C)NC(=O)CNC(=O)[C@H](CC(N)=O)NC(=O)[C@H](CCC(N)=O)NC(=O)[C@H](C)NC(=O)[C@H](CO)NC(=O)CNC(=O)CNC(=O)[C@H](CCCCN)NC(=O)[C@H](CCCCN)NC(=O)[C@H](CCCNC(=N)N)NC(=O)[C@H](CC(C)C)NC(=O)[C@H](C)NC(=O)[C@H]([C@@H](C)CC)NC(=O)[C@H](CSSC[C@@H](C(=O)N[C@@H](CCCNC(=N)N)C(=O)N[C@@H](CC(N)=O)C(=O)O)NC(=O)[C@H](C(C)C)NC2=O)NC(=O)[C@H](Cc2c[nH]cn2)NC(=O)[C@H](CC(C)C)NC(=O)[C@H](C)NC1=O)C(C)C | broth microdilution | KCTC 1917 | 16 h, 37 °C | > 100 µM |
| CC[C@@H](C)[C@@H](NC(=O)[C@@H](C)NC(=O)[C@@H](CCCCN)NC(=O)[C@@H](CC(C)C)NC(=O)[C@@H](C)NC(=O)[C@H](NC(=O)[C@@H](Cc1c[nH]cn1)NC(=O)[C@@H](CC(C)C)NC(=O)[C@H](NC(=O)[C@H](NC(=O)[C@@H](CCCCN)NC(=O)[C@@H](CCCCN)NC(=O)[C@@H](C)NC(=O)[C@@H](CO)NC(=O)[C@@H](CCCCN)NC(=O)[C@@H](Cc1ccccc1)NC(=O)[C@H](NC(=O)[C@@H](CCCCN)NC(=O)[C@@H](CC(C)C)NC(=O)[C@@H](Cc1ccccc1)NC(=O)[C@@H](CO)NC(=O)[C@@H](CCCCN)NC(=O)[C@@H](Cc1c[nH]c2ccccc12)NC(=O)[C@@H](CCCCN)NC(C)=O)[C@H](C)O)[C@H](C)O)C(C)C)[C@H](C)O)C(=O)N[C@H](CO)C(=O)N[C@H](CO)C(N)=O | – | clinical isolate | 24 h, 37 °C | 4 µg/mL |
| CC[C@H](C)[C@H](NC(=O)[C@H](NC(=O)[C@@H](CCCNC(=N)N)NC(=O)[C@@H](N)COC(=O)[C@@H](NC(=O)[C@@H](Cc1ccccc1)NC)[C@@H](C)CC)[C@@H](C)CC)C(=O)N[C@@H](CO)C(=O)N[C@H]1C(=O)N[C@@H](C)C(=O)N[C@@H](CC(C)C)C(=O)N[C@@H]([C@@H](C)CC)C(=O)O[C@H]1C | broth microdilution | ATCC 14990, Mueller-Hinton broth | 16 h, 37 °C | 0.0312 to 0.0625 µg/mL |
| CCCCCCCCCCCCCCCc1cc(O)cc(O)c1 | microbial growth, broth dilution | ATCC35984 | drug-resistant strain | > 64 µg/mL |
| c1ccc(CCNC2CCCc3c2[nH]c2ccc(C4CCCCC4)cc32)cc1 (stereo not shown) | microbial growth, broth dilution | MRSE | – | 2 µg/mL |
| CC(C)C[C@H](NC(=O)[C@H](CCCCN)NC(=O)[C@H](C)NC(=O)[C@H](CC(C)C)NC(=O)[C@H](CCCCN)NC(=O)[C@H](CCCCN)NC(=O)[C@H](C)NC(=O)[C@H](CC(C)C)NC(=O)[C@H](CCCCN)NC(=O)[C@H](C)NC(=O)[C@H](CC(C)C)NC(=O)[C@H](CCCCN)NC(=O)[C@H](Cc1c[nH]cn1)NC(=O)CNC(=O)CN)C(=O)N[C@@H](C)C(=O)N[C@@H](CCCCN)C(N)=O | – | ATCC 12228 | 18 to 20 h | 1 µM |
| Cc1cccc(C)c1SCC1OC(OC2C(N)CC(N)C(OC3OC(CN)C(O)CC3N)C2O)C(O)C(N)C1O (stereo not shown) | – | – | – | 18.8 µg/mL |
| CC(C)C[C@H](NC(=O)CNC(=O)[C@H](C)NC(=O)[C@H](CCCNC(=N)N)NC(=O)[C@H](Cc1c[nH]cn1)NC(=O)[C@H](C)NC(=O)[C@@H](N)CC(=O)O)C(=O)N[C@@H](CCC(N)=O)C(=O)N[C@@H](Cc1ccccc1)C(=O)N1CCC[C@H]1C(=O)N[C@H](C(=O)NCC(=O)N[C@@H](CCCNC(=N)N)C(=O)N[C@H](C(=O)N[C@@H](Cc1c[nH]cn1)C(=O)N[C@@H](CCCNC(=N)N)C(=O)N[C@@H](CC(C)C)C(=O)N[C@@H](CC(C)C)C(=O)N[C@@H](CCCNC(=N)N)C(=O)N[C@@H](CCCCN)C(N)=O)C(C)C)C(C)C | – | ATCC 12228 | 18 to 20 h | 4 µM |
| CC(C)CCCCCCCCCCCCc1cc(O)cc(O)c1 | microbial growth, broth dilution | ATCC35984 | drug-resistant strain | > 64 µg/mL |
| CCCN1CCNC1=[S+][Ag-3]([O][N+](=O)[O-])([P+](c1ccccc1)(c1ccccc1)c1ccccc1)[P+](c1ccccc1)(c1ccccc1)c1ccccc1 | agar dilution | MTCC 435, Mueller Hinton agar | 24 h, 37 °C | 5 to 10 µg/mL and 10 µg/mL |
| CC[C@H](C)[C@@H]1NC(=O)CNC(=O)[C@H](CCCCN)NC(=O)[C@H](C)NC(=O)[C@H](CCC(=O)O)NC(=O)[C@H](Cc2ccccc2)NC(=O)[C@H](CO)NC(=O)[C@H](CC(C)C)NC(=O)[C@H](C(C)C)NC(=O)[C@H](CC(=O)O)NC(=O)[C@@H](NC(=O)[C@@H](NC(=O)[C@@H](N)C(C)C)[C@@H](C)O)CSSC[C@@H]2NC(=O)[C@H](CO)NC(=O)CNC(=O)CNC(=O)[C@H](CCCCN)NC(=O)[C@H](CCCCN)NC(=O)[C@H](CCCNC(=N)N)NC(=O)[C@H](CC(C)C)NC(=O)[C@H](C)NC(=O)[C@H]([C@@H](C)CC)NC(=O)[C@H](CSSC[C@@H](C(=O)N[C@@H](CCCNC(=N)N)C(=O)N[C@@H](CC(N)=O)C(=O)O)NC(=O)[C@H](C(C)C)NC(=O)[C@H](C)NC(=O)[C@H](C(C)C)NC(=O)CNC(=O)[C@H](CC(N)=O)NC(=O)[C@H](CCC(N)=O)NC2=O)NC(=O)[C@H](Cc2c[nH]cn2)NC(=O)[C@H](CC(C)C)NC(=O)[C@H](C)NC(=O)[C@H](C)NC(=O)[C@H](C)NC(=O)[C@H](CO)NC(=O)[C@H](Cc2c[nH]cn2)NC(=O)[C@H](CC(N)=O)NC(=O)[C@H](C(C)C)NC(=O)[C@H](C)NC1=O | broth microdilution | KCTC 1917 | 16 h, 37 °C | > 100 µM |
